Measured values pooled from the literature.
Each line is one published result; not all experiments were run side by side. Several values in a cell are separate wells, animals, samples, runs or records. Numbers after ± are the reported error.
DRD5: D(1B) dopamine receptor (DRD5, Homo sapiens, UniProt P21918)
XPO1: Exportin-1 (XPO1, Homo sapiens, UniProt O14980)
Sequence of UniProt O14980 (whole entry, looked up): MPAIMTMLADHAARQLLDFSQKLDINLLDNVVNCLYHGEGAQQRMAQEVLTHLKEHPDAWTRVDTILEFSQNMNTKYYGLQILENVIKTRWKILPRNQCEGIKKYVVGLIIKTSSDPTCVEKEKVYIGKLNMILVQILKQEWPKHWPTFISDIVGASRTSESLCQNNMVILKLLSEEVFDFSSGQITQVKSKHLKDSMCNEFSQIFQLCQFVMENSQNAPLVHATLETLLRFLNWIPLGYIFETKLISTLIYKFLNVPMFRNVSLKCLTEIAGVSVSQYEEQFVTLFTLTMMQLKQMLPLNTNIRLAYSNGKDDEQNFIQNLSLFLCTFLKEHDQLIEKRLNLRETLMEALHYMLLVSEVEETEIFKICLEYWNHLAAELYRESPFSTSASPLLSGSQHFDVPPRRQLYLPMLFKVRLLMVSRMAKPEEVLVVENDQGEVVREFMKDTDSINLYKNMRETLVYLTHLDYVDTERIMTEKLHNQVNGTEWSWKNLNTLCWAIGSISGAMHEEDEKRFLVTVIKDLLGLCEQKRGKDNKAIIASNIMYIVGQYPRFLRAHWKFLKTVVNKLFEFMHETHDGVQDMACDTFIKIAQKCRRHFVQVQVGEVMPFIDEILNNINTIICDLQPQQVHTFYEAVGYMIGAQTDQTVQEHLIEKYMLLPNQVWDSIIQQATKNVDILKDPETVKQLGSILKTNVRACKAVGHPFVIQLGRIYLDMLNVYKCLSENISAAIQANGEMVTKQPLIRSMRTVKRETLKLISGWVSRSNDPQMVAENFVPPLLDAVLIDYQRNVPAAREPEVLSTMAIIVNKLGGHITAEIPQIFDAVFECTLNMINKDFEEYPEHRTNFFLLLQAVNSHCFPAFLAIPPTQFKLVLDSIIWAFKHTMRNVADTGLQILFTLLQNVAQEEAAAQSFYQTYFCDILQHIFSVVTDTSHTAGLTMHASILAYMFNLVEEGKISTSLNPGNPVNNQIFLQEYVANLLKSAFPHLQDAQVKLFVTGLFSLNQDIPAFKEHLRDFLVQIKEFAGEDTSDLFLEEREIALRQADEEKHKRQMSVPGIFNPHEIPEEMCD
Nuclear receptor subfamily 2 group C member 2 ligand-binding domain: Nuclear receptor subfamily 2 group C member 2, ligand-binding domain (Homo sapiens, UniProt P49116)
Sequence of UniProt P49116 (whole entry, looked up): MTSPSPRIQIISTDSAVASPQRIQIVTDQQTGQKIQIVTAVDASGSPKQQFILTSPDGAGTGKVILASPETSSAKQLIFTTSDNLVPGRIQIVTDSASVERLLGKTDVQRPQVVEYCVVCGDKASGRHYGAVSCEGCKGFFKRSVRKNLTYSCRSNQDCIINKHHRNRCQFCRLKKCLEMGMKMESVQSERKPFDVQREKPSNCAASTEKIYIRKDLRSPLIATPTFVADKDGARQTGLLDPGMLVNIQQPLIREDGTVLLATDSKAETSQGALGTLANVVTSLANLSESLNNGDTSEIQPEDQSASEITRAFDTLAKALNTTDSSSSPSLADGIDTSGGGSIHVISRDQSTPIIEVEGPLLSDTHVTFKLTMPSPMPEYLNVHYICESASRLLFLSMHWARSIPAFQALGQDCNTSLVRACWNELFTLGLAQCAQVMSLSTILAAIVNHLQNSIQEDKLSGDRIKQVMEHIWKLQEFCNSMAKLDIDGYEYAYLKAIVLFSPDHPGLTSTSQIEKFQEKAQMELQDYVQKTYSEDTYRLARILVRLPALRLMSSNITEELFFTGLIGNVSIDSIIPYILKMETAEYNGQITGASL
TOP2A: DNA topoisomerase 2-alpha (TOP2A, Homo sapiens, UniProt P11388)
Sequence of UniProt P11388 (whole entry, looked up): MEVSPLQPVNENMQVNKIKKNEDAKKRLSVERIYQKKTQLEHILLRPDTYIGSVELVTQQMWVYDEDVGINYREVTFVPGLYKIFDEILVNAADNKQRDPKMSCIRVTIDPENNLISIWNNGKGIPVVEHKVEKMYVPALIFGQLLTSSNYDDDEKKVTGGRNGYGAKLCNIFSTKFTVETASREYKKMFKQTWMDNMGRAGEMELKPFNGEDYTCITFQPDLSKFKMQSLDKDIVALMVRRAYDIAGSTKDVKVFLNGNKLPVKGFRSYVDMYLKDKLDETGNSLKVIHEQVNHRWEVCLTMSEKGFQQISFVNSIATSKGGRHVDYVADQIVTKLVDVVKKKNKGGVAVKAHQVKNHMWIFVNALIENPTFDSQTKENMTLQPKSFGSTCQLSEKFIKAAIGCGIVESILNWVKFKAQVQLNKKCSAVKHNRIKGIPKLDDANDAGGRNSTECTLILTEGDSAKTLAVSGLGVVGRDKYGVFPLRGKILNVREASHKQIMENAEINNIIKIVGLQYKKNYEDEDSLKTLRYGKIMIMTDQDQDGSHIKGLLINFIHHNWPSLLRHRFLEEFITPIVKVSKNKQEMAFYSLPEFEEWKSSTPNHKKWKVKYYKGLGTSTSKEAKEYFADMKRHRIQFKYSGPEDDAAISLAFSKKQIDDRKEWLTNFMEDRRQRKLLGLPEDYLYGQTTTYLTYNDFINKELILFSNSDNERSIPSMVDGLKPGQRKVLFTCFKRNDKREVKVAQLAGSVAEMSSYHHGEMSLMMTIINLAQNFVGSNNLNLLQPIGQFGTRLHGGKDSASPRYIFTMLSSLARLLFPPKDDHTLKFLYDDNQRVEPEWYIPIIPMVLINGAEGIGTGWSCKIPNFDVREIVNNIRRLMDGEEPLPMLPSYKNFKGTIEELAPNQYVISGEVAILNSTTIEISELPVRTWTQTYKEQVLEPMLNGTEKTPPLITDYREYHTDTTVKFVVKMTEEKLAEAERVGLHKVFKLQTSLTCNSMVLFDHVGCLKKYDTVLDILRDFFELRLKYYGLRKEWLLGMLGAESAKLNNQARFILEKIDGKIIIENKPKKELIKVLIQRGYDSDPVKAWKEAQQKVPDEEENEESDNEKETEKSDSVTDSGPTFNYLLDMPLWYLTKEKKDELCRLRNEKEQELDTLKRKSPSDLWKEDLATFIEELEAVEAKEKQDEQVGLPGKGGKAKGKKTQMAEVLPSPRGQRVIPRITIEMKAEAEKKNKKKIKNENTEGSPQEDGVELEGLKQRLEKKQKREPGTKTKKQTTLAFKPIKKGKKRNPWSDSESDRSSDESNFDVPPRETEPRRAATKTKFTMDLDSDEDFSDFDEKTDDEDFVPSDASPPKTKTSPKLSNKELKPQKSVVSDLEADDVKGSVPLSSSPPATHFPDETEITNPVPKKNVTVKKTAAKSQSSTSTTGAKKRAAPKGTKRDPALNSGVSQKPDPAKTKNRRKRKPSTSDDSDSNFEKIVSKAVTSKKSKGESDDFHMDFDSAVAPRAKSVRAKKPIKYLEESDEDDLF
T1: ssDNA, aptamer; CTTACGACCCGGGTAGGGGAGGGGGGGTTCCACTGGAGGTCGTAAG
Sequence of UniProt Q16774 (whole entry, unmodified, looked up): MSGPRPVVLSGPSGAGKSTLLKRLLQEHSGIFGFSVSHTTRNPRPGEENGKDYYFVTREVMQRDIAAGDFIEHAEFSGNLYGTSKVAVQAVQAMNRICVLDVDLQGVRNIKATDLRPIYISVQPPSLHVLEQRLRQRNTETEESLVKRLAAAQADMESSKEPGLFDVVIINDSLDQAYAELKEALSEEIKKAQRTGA
Sequence of UniProt O76090 (whole entry, unmodified, looked up): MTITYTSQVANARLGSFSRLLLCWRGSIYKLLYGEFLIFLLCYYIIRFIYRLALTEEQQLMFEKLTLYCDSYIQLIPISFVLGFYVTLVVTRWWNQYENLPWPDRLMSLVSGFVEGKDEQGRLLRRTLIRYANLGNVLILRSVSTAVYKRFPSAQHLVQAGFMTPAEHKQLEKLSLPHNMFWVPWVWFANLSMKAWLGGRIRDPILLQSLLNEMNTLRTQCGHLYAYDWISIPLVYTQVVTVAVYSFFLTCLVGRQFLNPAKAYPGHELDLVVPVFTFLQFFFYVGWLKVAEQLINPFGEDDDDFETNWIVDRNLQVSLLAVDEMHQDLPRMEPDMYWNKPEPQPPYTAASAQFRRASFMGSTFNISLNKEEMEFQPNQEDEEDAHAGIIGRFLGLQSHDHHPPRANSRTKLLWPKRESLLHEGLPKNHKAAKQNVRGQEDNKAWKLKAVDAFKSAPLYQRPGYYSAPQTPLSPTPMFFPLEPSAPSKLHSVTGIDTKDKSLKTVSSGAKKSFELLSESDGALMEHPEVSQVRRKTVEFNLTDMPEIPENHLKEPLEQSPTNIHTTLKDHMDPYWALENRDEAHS
Sequence of UniProt Q6P996 (whole entry, looked up): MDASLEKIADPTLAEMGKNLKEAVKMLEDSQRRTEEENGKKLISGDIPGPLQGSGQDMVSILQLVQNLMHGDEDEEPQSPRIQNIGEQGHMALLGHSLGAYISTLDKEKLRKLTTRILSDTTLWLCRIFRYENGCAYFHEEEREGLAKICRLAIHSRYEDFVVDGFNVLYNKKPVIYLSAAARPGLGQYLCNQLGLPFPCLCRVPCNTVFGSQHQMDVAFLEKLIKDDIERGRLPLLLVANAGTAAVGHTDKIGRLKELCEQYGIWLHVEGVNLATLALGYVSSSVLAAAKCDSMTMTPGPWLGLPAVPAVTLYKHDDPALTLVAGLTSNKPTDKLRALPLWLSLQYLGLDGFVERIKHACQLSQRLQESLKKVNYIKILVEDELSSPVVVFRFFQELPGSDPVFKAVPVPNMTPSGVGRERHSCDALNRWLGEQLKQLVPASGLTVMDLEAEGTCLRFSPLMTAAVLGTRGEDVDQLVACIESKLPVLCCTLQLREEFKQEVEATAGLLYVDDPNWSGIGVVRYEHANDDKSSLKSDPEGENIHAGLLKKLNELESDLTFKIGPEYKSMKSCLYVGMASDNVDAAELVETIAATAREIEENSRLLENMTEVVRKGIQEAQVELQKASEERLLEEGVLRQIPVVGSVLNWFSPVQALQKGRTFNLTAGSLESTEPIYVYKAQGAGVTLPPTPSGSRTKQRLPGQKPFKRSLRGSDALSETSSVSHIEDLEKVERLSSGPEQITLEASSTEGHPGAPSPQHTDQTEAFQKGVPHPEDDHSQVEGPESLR
Sequence of UniProt P63208 (whole entry, looked up): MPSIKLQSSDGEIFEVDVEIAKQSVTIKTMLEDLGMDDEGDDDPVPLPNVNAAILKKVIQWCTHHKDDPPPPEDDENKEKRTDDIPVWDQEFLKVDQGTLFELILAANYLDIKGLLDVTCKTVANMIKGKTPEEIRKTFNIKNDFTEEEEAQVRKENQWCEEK

COc1cc2c(cc1OC)C(=O)N(CCCCN1CCN(c3ccccc3OC)CC1)C2 — inhibition (DRD5; radioligand binding; concentration not given, added: [3H]SCH23390): 75.1%
CCS(=O)(=O)c1nc(C2CC2)cc(C(F)(F)F)n1 — cells with nuclear reporter (XPO1; nuclear export, high content imaging; HeLa Kyoto reporter; 50 µM, 2 h): 7.12% and 9.08% and 8.99%
O=C(c1ccc(OCCN2CCCCC2)cc1)c1c(-c2ccc(O)cc2)sc2cc(O)ccc12 — koff (Nuclear receptor subfamily 2 group C member 2 ligand-binding domain; SPR imaging; 600 nM): 9.62e-06 s⁻¹
O=c1nc(SCc2cc(F)cc(C(F)(F)F)c2)nc(SCc2ccc3nc(Cl)ccc3c2)[nH]1 — linear DNA (TOP2A; DNA cleavage; 125 µM, added: etoposide 50 µM): 10.1%
Nc1ccn([C@@H]2O[C@H](CO)[C@@H](O)[C@H]2O)c(=O)n1 — koff (Nuclear receptor subfamily 2 group C member 2 ligand-binding domain; SPR imaging; 600 nM): 1.92e-07 s⁻¹
CC[C@@H]1[C@H](F)C(=O)N[C@@H]1COc1nccc2cc(C(N)=O)c(OC)cc12 — inhibition (CAMK2G (Homo sapiens, UniProt Q13555); ATP-site probe binding, ActivX profiling; THP-1 cell lysate; 0.01 mM, Lys1 site): -1%
Cc1cc(O)c2c(c1)C(=O)c1cc(O)cc(O)c1C2=O — cell viability (HepaRG co-cultured with HK-2; MTT; 33.33 µM, 24 h; relative to: untreated control): 88.7 ± 12.9%
C=C1CN(S(=O)(=O)c2ccc(C)cc2)CCCN(Cc2ccccc2)CCCN(S(=O)(=O)c2ccc(C)cc2)C1 — FLuc/RLuc ratio (Protein transport protein Sec61 subunit alpha isoform 1 (Homo sapiens, UniProt P61619); measured: control signal peptide-FLuc reporter; HEK293; 0.013 mM, 6 h): 1.01
CCC1(O)CCCN(C(=O)c2ccc(-c3ccc(F)c(NC(=O)CCl)c3)cc2)C1 (stereo not drawn) — unmodified protein (DNA dC->dU-editing enzyme APOBEC-3B, C-terminal domain (Homo sapiens, UniProt Q9UH17); covalent adduct, intact protein MS; 1 h, 10-fold excess, 250 µM): 20% and 35%
CC1CCCN(C(=O)c2cc3ncccn3n2)C1 (stereo not drawn) — fold enrichment (S-phase kinase-associated protein 1 (SKP1, Homo sapiens, UniProt P63208); binding, affinity selection mass spectrometry; relative to: other proteins in batch): 0.837
CC(Nc1nc(N2CCCC2)nc2ccccc12)c1ccccc1 (stereo not drawn) — cells with nuclear reporter (XPO1; nuclear export, high content imaging; HeLa Kyoto reporter; 0.1 µM, 2 h): 6.6% and 2.81% and 2.3%
NCCS(=O)(=O)O — normalised MST signal (SLC6A6 (Homo sapiens, UniProt P31641, Y138A); binding, microscale thermophoresis; 977 nM, room temperature, added: 50 nM labelled protein; higher = more binding): -0.00223
C=CC(=O)N1CCC(C(=O)NCC(=O)N2CCN(c3nc(-c4cnc(N)nc4C(F)F)nc(N4CCOCC4)n3)CC2)CC1 — remaining binding (EGFR (Homo sapiens, UniProt P00533, G719C); KINOMEscan; 1 µM): 87%
Cc1nc2c(Cl)cccn2c1NC(=O)c1ccc(-c2ccc(N(C)C)cc2)o1 — confluence (COS-7; 10 µM, 24 h, 0.1% DMSO, unit not given; relative to: vehicle control): 1.09 ± 0.07
CN(C(=O)n1cnc(-c2ccc[n+]([O-])c2)c1)C1CCCCC1 — ED50 (Faah (Mus musculus, UniProt O08914); enzyme activity, inhibitor; NMRI mice, brain; oral, 1 h): ~0.094 mg/kg
Nc1nc2c(ncn2[C@@H]2O[C@H](COP(=O)(O)O)[C@@H](O)[C@H]2O)c(=O)[nH]1 — reaction rate (GUK1 (Homo sapiens, UniProt Q16774, E72A); enzyme activity, NADH-coupled; 250 µM): 0.409 s⁻¹ and 0.462 s⁻¹ and 0.874 s⁻¹
CC[C@H](C)[C@H](NC(=O)[C@H](CCC(=O)O)NC(=O)[C@H](CCC(=O)O)NC(=O)[C@@H]1CCCN1C(=O)[C@H](CC(=O)O)NC(=O)[C@H](C)NC(=O)[C@H](CCC(N)=O)NC(=O)[C@@H](NC(=O)[C@H](C)NC(=O)[C@@H](NC(=O)[C@H](CO)NC(=O)[C@@H](NC(=O)[C@H](CCCCN)NC(=O)[C@@H](N)Cc1ccc(O)cc1)[C@@H](C)O)C(C)C)[C@@H](C)O)C(=O)N[C@H](C(=O)N[C@H](C(=O)N[C@@H](CC(C)C)C(=O)N[C@@H](COP(=O)(O)O)C(=O)N[C@@H](CC(=O)O)C(=O)N[C@@H](COP(=O)(O)O)C(=O)N[C@@H](CC(=O)O)C(=O)O)C(C)C)[C@@H](C)CC — -TΔS (Small ubiquitin-related modifier 1, residues 17-97 (Homo sapiens, UniProt P63165, C52A); isothermal titration calorimetry; pH 7.4, N-terminally truncated SUMO1): -11.2 ± 0.5 kcal/mol
C[C@H](N)C(=O)N[C@@H](CCCNC(=N)N)C(=O)N[C@H](C(=O)N[C@@H](CCCCN)C(=O)N[C@@H](CCC(N)=O)C(=O)N[C@H](C(=O)N[C@@H](C)C(=O)N[C@@H](CCCNC(=N)N)C(=O)N[C@@H](CCCCN)C(=O)N[C@@H](CO)C(=O)O)[C@@H](C)O)[C@@H](C)O — binding entropy (Transcriptional regulator ATRX (ATRX, Homo sapiens, UniProt P46100, F284Y/K251R); isothermal titration calorimetry; concentration not given, pH 7.5, 25.0 °C): 8.44 cal/mol/K
N#Cc1ccc(Cn2cncc2CN2CCN(c3cccc(OC(F)(F)F)c3)C(=O)C2)cc1Oc1ccccc1 — IC50 (Cryptococcus neoformans farnesyltransferase; enzyme activity, inhibitor, fluorescence; added: 1 µM FPP, 0.5 µM dansylated peptide): 2600 ± 1400 nM
CC[C@@H](C)[C@@H](NC(=O)[C@@H](Cc1ccc(O)cc1)NC(=O)[C@H]1CCCN1C(=O)[C@@H](CCCNC(=N)N)NC(=O)[C@H](N)Cc1c[nH]cn1)C(=O)N[C@H](C)C(=O)N[C@H](Cc1c[nH]cn1)C(=O)N[C@H](CCCNC(=N)N)C(=O)N[C@@H](C(=O)N[C@H](Cc1ccc(O)cc1)C(=O)N[C@H](CO)C(=O)N[C@H](Cc1ccccc1)C(N)=O)C(C)C — surface expression (Transferrin receptor protein 1 (Tfrc, Mus musculus, UniProt Q62351); flow cytometry; RAW264.7; 24 h, pH 7.4, unit not given; relative to: 0 h): 1.07 and 1.06
Cc1ncccc1OC[C@H]1CN(CCN2CCc3ccccc32)CCO1 — inhibition (DRD5; radioligand binding; concentration not given, added: [3H]SCH23390): 17.1%
CN(C)CCC(c1ccccc1)c1ccccn1 (stereo not drawn) — koff (Nuclear receptor subfamily 2 group C member 2 ligand-binding domain; SPR imaging; 600 nM): 6.48e-07 s⁻¹
COc1ccc(F)cc1C(=O)NCc1ccc(-c2nn([C@@H](C)C(F)(F)F)c(N)c2C(N)=O)cc1 — first melting temperature (BTK (Homo sapiens, UniProt Q06187); differential scanning fluorimetry; added: BTK inhibitor 100 µM): 41.2 °C
CCOc1cc(-c2nncn2C)ccc1Nc1ncc2cc(C)nc(NCC(C)(C)C)c2n1 — displacement (STK33 (Homo sapiens, UniProt Q9BYT3); binding, LanthaScreen binding; 1 µM): 27%
O=C1OC(c2ccccc2)=N/C1=C\c1ccc(O)c(O)c1 — Vmax (Pancreatic alpha-amylase (Homo sapiens, UniProt P04746); inhibitor, Lineweaver-Burk; 300 ppm, added: starch substrate): 0.035 mg/mL/min
O=c1nc(SCc2ccc(C(F)(F)F)cc2)nc(SCc2csc3ccc(Cl)cc23)[nH]1 — relaxed DNA (TOP2A; DNA relaxation; 7.8 µM, replicate 2): 35.4%
Cc1onc(-c2ccccc2)c1-c1ccc(S(N)(=O)=O)cc1 — apoptotic cells (COS-7; 50 µM, 24 h, 0.1% DMSO, unit not given; relative to: vehicle control): 0.69 ± 0.08
CC(=O)Nc1ccc(O)cc1 — chemical shift change (BRD4 (Homo sapiens, UniProt O60885); 19F NMR, measured: tyrosine 118; 95 µM; relative to: free protein): -0.015 ppm
Nc1ncnc2c1ncn2[C@@H]1O[C@H](COP(=O)(O)OP(=O)(O)O)[C@@H](O)[C@H]1O — kcat (CKMT1A (Homo sapiens, UniProt P12532, H99K); substrate, Kinase-Glo luminescence; pH 7.0, reverse reaction, H61K mutant, added: second substrate in excess): 5 ± 1 s⁻¹
N#CC[C@H](C1CCCC1)n1cc(-c2ncnc3[nH]ccc23)cn1 — koff (Nuclear receptor subfamily 2 group C member 2 ligand-binding domain; SPR imaging; 600 nM): 1.57e-06 s⁻¹
O=C(COP(=O)(O)O)[C@@H](O)[C@H](O)[C@H](O)COP(=O)(O)O — thermal stability ratio (Pyridoxal-dependent decarboxylase domain-containing protein 1 (PDXDC1, Homo sapiens, UniProt Q6P996); thermal proteome profiling, measured: PDXDC1; HepG2 cell lysate; concentration not given, 57 over 37 °C; relative to: compound over control): 0.516 and 0.6 and 0.625
C=CC(=O)N1CCC(COCC(=O)N2CCN(c3nc(-c4cnc(N)nc4C(F)F)nc(N4CCOC[C@@H]4C)n3)CC2)CC1 — remaining binding (BMPR1B (Homo sapiens, UniProt O00238); KINOMEscan; 1 µM): 89%
Nc1ncnc2c1ncn2[C@@H]1O[C@H](COP(=O)(O)OP(=O)(O)O)[C@@H](O)[C@H]1O — ΔH (GUK1 (Homo sapiens, UniProt Q16774); binding, isothermal titration calorimetry; molar ratio 3.053, fitted curve): -0.153 kcal/mol
O=[N+]([O-])c1cc(C(F)(F)F)ccc1NCc1ccco1 — ΔG (Endothelial PAS domain-containing protein 1, PAS-B domain (EPAS1, Homo sapiens, UniProt Q99814, N288A); binding, ITC, reverse mode): -8.29 ± 0.17 kcal/mol
Nc1ncnc2c1ncn2[C@@H]1O[C@H](COP(=O)(O)OP(=O)(O)OP(=O)(O)O)[C@@H](O)[C@H]1O — Kd (T1, ssDNA, aptamer; ITC): 551 nM
Nc1ccc(C(=O)O)cc1 — current density (BEST1, with wild-type BEST1 (Homo sapiens, UniProt O76090, Q293K); ion current, whole-cell patch clamp; HEK293 co-expressing mutant and wild-type; concentration not given, voltage -20 mV): -0.97 pA/pF and -3.54 pA/pF and -2.39 pA/pF and -2.37 pA/pF and -7.73 pA/pF and -2.99 pA/pF
O=C(Nc1ccc(CN2CCOCC2)c(C(F)(F)F)c1)c1ccc(C#Cc2cccc3cnccc23)cn1 — activity (NUDT1 (Homo sapiens, UniProt P36639); activator, measured: endogenous MTH1; HCC1806 whole cell lysate; 20 µM): > 200%
COc1ccccc1N1CCN(CC(O)COc2cccc3ccccc23)CC1 (stereo not drawn) — koff (Nuclear receptor subfamily 2 group C member 2 ligand-binding domain; SPR imaging; 600 nM): 1.05e-07 s⁻¹
CCCCC[C@H](O)/C=C/[C@H]1C(=O)C[C@H](O)[C@@H]1C/C=C\CCCC(=O)O — activation (PTGDR (Homo sapiens, UniProt Q13258, D262A); agonist; 0.1562 µM): 88.8%

A few entries again:
NCCS(=O)(=O)O — normalised MST signal (SLC6A6 (Homo sapiens, UniProt P31641, Y138A); binding, microscale thermophoresis; 977 nM, room temperature, added: 50 nM labelled protein; higher = more binding): -0.00223
C=CC(=O)N1CCC(C(=O)NCC(=O)N2CCN(c3nc(-c4cnc(N)nc4C(F)F)nc(N4CCOCC4)n3)CC2)CC1 — remaining binding (EGFR (Homo sapiens, UniProt P00533, G719C); KINOMEscan; 1 µM): 87%
Cc1nc2c(Cl)cccn2c1NC(=O)c1ccc(-c2ccc(N(C)C)cc2)o1 — confluence (COS-7; 10 µM, 24 h, 0.1% DMSO, unit not given; relative to: vehicle control): 1.09 ± 0.07
CN(C(=O)n1cnc(-c2ccc[n+]([O-])c2)c1)C1CCCCC1 — ED50 (Faah (Mus musculus, UniProt O08914); enzyme activity, inhibitor; NMRI mice, brain; oral, 1 h): ~0.094 mg/kg
